Results gathered from unrelated publications.
Each line is one published result; not all experiments were run side by side. Converted amounts (≈) assume the structure as drawn.

| Compound | organism | test | test system | conditions | how to read | endpoint | value |
| --- | --- | --- | --- | --- | --- | --- | --- |
| CC[C@H](C)[C@H](NC(=O)[C@H](Cc1c[nH]c2ccccc12)NC(=O)[C@H](CCCNC(=N)N)NC(=O)[C@H](CCC(N)=O)NC(=O)[C@@H](NC(=O)[C@H](Cc1c[nH]c2ccccc12)NC(=O)[C@H](CCCNC(=N)N)NC(=O)[C@H](CCCNC(=N)N)NC(=O)[C@H](C)NC(=O)[C@H](C)NC(=O)[C@H](C)NC(=O)[C@@H](NC(=O)[C@H](CCCCN)NC(=O)[C@@H]1CCCN1C(=O)[C@H](CCCNC(=N)N)NC(=O)[C@H](Cc1c[nH]c2ccccc12)NC(=O)[C@H](CCCNC(=N)N)NC(=O)[C@H](CCCNC(=N)N)NC(=O)[C@@H](NC(=O)[C@H](Cc1c[nH]c2ccccc12)NC(=O)[C@H](CCCNC(=N)N)NC(=O)[C@H](CCC(N)=O)NC(=O)[C@@H](NC(=O)[C@H](Cc1c[nH]c2ccccc12)NC(=O)[C@H](CCCNC(=N)N)NC(=O)[C@@H](N)CCCNC(=N)N)C(C)C)[C@@H](C)CC)C(C)C)C(C)C)C(=O)N[C@@H](CCCNC(=N)N)C(=O)N[C@@H](CCCNC(=N)N)C(=O)N[C@@H](Cc1c[nH]c2ccccc12)C(=O)N[C@@H](CCCNC(=N)N)C(=O)N1CCC[C@H]1C(=O)N[C@@H](CCCCN)C(=O)N[C@H](C(N)=O)C(C)C | Fusarium | – | – | 25 °C, metabolic activity and growth | – | inhibitory concentration | 0.625 µM |
| O=C(C1CCN(c2nnnn2-c2ccccc2)CC1)N1CCCc2ccccc21 | Plasmodium falciparum | – | erythrocytes, Dd2, dhodh variant | – | – | IC50 | 0.699 µM |
| COc1ccc(C2=[N+]([O-])c3ccccc3N3CCN=C23)cc1 | Finegoldia magna | – | – | – | – | MIC | 0.25 µg/mL (≈ 0.852 µM) |
| CCn1c(-c2ccc(OC)cc2)c(-c2ccc(OC)cc2)n(CC)c1=[Se+][Au-][P+](CC)(CC)CC.[Cl-] | Acinetobacter baumannii, carbapenem-resistant | item: IL-6, TNF-alpha | BALB/c mouse, skin wound infection, wound tissue | dose not given, day 14 | relative to: untreated infected | proinflammatory gene expression | decreased |
| CNC(CC(C)C)C(=O)NC1C(=O)NC(CC(N)=O)C(=O)NC2C(=O)NC3C(=O)NC(C(=O)NC(C(=O)O)c4cc(O)cc(O)c4-c4cc3ccc4O)C(O)c3ccc(c(Cl)c3)Oc3cc2cc(c3OC2OC(CO)C(O)C(O)C2OC2CC(C)(NCc3ccc(-c4ccc(Cl)cc4)cc3)C(O)C(C)O2)Oc2ccc(cc2Cl)C1O (stereo not shown) | Enterococcus faecalis and Enterococcus faecium | – | VanA, 4 strains | – | relative to: vancomycin over cpd MIC | potency improvement | ~100 fold |
| [Cl-].[Cl-].[Mn+2].c1ccc(CN2CCNCCN(Cc3ccccc3)CCNCC2)cc1 | Leishmania donovani | parasite growth, resazurin | – | 72 h, amastigote | – | IC50 | > 20 µM |
| COc1ccc(S(=O)(=O)NCc2c[nH]nc2-c2cccs2)cc1 | Plasmodium falciparum | single-step resistance selection | Dd2-B2 | – | – | days to recrudescence | 40 days |
| CCc1nn(C)c2nc(-c3ccc(C(=O)O)cc3)nc(NCc3ccccc3)c12 | Cryptosporidium parvum | – | NSG mouse | oral, 50 mg/kg twice daily, 7 days | – | parasite shedding reduction | ~99% |
| COc1cc(-c2ccc3oc(-c4ccsc4)c(C#CC4(O)CCCCC4)c3c2)cc(OC)c1OC | hepatitis C virus | viral entry, HCV pseudoparticle entry | genotype 1b | 10 µM | relative to: DMSO | remaining activity | 88.4% |
| CC(=O)[O-].F[P-](F)(F)(F)(F)F.[Cu+2].c1ccc(CN2CCN3CCN(CC2)CCN(Cc2ccccc2)CC3)cc1 | Leishmania donovani | parasite growth, resazurin | – | 72 h, amastigote | – | IC90 | > 20 µM |
| CC(CCC(=O)[O-])C1CCC2C3C(O)CC4CC(O)CCC4(C)C3CCC12C.C[N+](C)(C)CC(O)CC(=O)O (stereo not shown) | Shigella flexneri | – | ATCC 9199 | 1 mg per disc, 18 to 24 h, 37 °C | – | antibacterial activity | inactive |
| F[P-](F)(F)(F)(F)F.F[P-](F)(F)(F)(F)F.[Cu+2].c1ccc(CN2CCCNCCN(Cc3ccccc3)CCCNCC2)cc1 | Leishmania donovani | parasite growth, resazurin | – | 72 h, promastigote | – | IC50 | > 20 µM |
| CC[C@H](C)[C@H](NC(=O)[C@@H]1CCCN1C(=O)[C@H](CCCNC(=N)N)NC(=O)[C@H](CC(=O)O)NC(=O)[C@H](CCCCN)NC(=S)Nc1ccc2c(c1)C(=O)OC21c2ccc(O)cc2Oc2cc(O)ccc21)C(=O)N[C@@H](Cc1ccccc1)C(=O)N[C@@H](CCC(N)=O)C(=O)N[C@@H](CC(C)C)C(=O)N[C@@H](CC(N)=O)C(=O)N[C@H](C(=O)N[C@@H](CO)C(=O)N[C@@H](Cc1ccc(O)cc1)C(=O)N[C@@H](Cc1c[nH]c2ccccc12)C(=O)N[C@@H](CCC(=O)O)C(=O)N[C@@H](CCSC)C(=O)NCC(=O)N[C@@H](C)C(=O)O)[C@@H](C)O | Fusarium solani | – | – | 10-fold MIC, 25 °C | – | duration of growth inhibition | 24 h |

A few entries again:
| Compound | organism | test | test system | conditions | how to read | endpoint | value |
| --- | --- | --- | --- | --- | --- | --- | --- |
| CCc1nn(C)c2nc(-c3ccc(C(=O)O)cc3)nc(NCc3ccccc3)c12 | Cryptosporidium parvum | – | NSG mouse | oral, 50 mg/kg twice daily, 7 days | – | parasite shedding reduction | ~99% |
